Measured values collected from several papers.
A part holds a random share of what one study measured.

Study 1 — technique: RNA Bind-n-Seq; form: RNA; medium: in vitro; concentration: 365 nM; relative to: no-protein control; direction: higher = stronger binding
Target: RNA binding protein fox-1 homolog 2, RRM domain, GST-SBP tag (RBFOX2, Homo sapiens, UniProt O43251-10, residues 100-194)
Notes: natural RNA segment, single round, ends assumed
Constant ends, left off below: GGGAGUUCUACAGUCCGACGAUC … UGGAAUUCUCGGGUGCCAA
Construct (chain): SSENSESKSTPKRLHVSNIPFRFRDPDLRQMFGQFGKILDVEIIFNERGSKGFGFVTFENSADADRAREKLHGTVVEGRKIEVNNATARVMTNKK
Strand | RBNS enrichment (R)
CACCUGGACUUGGCUUCCUGAGAAAGAUUGUUUUUUAACCUUUGGCUUUCUUCAUUCAGUGUGCCAUCUUUGAUCUUACAGCGGUGCCUGUGGAAGGACAGGGUGAGAAA | 0.453
UUUGCUCCAGCCACUUUUCUUGUACAACUACGGGGAUGGACUAGAUGUCCUCUGGUCUUUUCCAUCUUCGCUUUCUAUGACUGUGGAAUAAAUGUUCAGACAGAAACUUC | 0.665
AUGGCCUAGUACCUGAUGGAGCCUGUAUAGCUCAGCUAAUCAAAUGGAGGCUCAGGUCCAUCAGAAUCAGGGACUUGUGAUUUCAGUCACCUUGCUUCUGGGUUGUGUUU | 0.317
GACAGGCAGCCAUUGAUGGGAGCAAAGCUUGCAGGUGCCUGGAGGUGGUCCCACCAUUGCCUGCAGAUGUCCUUCCUCUGUUCACAGUUAGGUUUAGUGAGCAUUUCAUG | 0.379
AAAUUGCUCUUCUGAAAAUUGUGUCCUGUGCUUUUAGACUUUGGAGUUCCACAGAUAGUAAAAAUAUAGCCUUCACAAUUUUUUAAUAAUCAGUAUCAUUUCUACACCAA | 0.579
GUGCCUUAUGCUUUCAUUGGACCAGCUGAAAUCACUGUAUUUAUUCAACUAGUGAUUUUUUUUUCUUUCUCACUUUAACUUAAAGAGAAUUUUAUAUGUCUUGGAAAUUU | 1.32
GUGGGUCCUACAGGUGCUUCCAUGCUCUGGUUAGACUGUCCUGUCUGAGGACACAGCCAGUUUCUUCAGCACCUCCACAAACUGCACCCCGUCUCUGUCCAUGCACCUCG | 0.561
GGUGGAGCCGUGAAGGAGGCCGAGCUGCAGCUCUGGCUGCUGCUUGGCCUCCUGCUCCAAGACCCUCCCGAGUCCCCGGAAAUGGAGAGUGCAGUUCUUGGGCCCAGCCU | 0.457

Study 2 — cell line: HEK-293T; read-out: pseudovirus infection; technique: FDA-approved drug library screen; organism: VSV pseudotyped with SARS-CoV-2 spike; concentration: 10 µM; time: 16 h; relative to: vehicle-treated
Structure (SMILES) | GFP-positive cells [%]
CO[C@@]1(NC(=O)CSCC#N)C(=O)N2C(C(=O)O)=C(CSc3nnnn3C)CS[C@@H]21 | 87.7
Nc1ccn([C@@H]2CS[C@H](CO)O2)c(=O)n1 | 118
COc1cc(CNC(=O)CCCC/C=C/C(C)C)ccc1O | 100

Study 3 — technique: protein binding microarray; form: double-stranded DNA, one strand shown; medium: in vitro; concentration: not given; relative to: not given; direction: higher = stronger binding
Target: Histone acetyltransferase KAT6A, both winged helices, GST fusion (KAT6A, Homo sapiens, UniProt Q92794, residues 1-181)
Notes: 8-mer, flanks averaged, mean of 2 arrays, mostly near background
Residues (chain): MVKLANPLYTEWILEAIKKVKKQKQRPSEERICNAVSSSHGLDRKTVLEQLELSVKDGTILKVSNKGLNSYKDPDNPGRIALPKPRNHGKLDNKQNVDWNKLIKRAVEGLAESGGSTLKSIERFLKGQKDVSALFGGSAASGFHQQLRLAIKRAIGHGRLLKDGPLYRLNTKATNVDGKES
Strand | E-score
GTATACCA | -0.0555
GACTCAGC | 0.0126
CGACACTA | 0.0711
CACCTGGG | -0.303
ACAACGAC | 0.0659
CGAAGTTA | -0.171
CTTTTGAA | 0.00245
GTTGCCCA | -0.0311

Study 4 — read-out: enzyme activity; action: inhibitor; concentration: 20 µM
Target: Replicase polyprotein 1ab, polymerase (rep, Severe acute respiratory syndrome coronavirus 2, UniProt P0DTD1)
SMILES | inhibition
CN1CCC(=C2c3ccccc3CC(=O)c3sccc32)CC1 | -1.7%
O=S1(=O)c2cccc3cccc(c23)N1CCCN1CCN(c2ccc(F)cc2)CC1 | -1.95%
CCS(=O)(=O)N1CCC([C@@H](C)n2c(C)c(C(=O)NCc3c(OC)cc(C)[nH]c3=O)c3ccccc32)CC1 | -5.12%
COc1ccc2cc(C(C)C(=O)Oc3ccc(C(N)=S)cc3)ccc2c1 (stereo not drawn) | 2.27%
O=C(C1CCCCC1)N1CC(=O)N2CCc3ccccc3C2C1 (stereo not drawn) | 16.6%
COc1cc(Cc2cnc(N)nc2N)cc(OC)c1OC | 2.31%
Cc1[nH]cnc1CN1CCc2c(c3ccccc3n2C)C1=O | 1%
Nc1nc(Nc2ccc(S(N)(=O)=O)cc2)nn1C(=O)c1c(F)cccc1F | -0.76%
COc1ccc(Cc2nccc3cc(OC)c(OC)cc23)cc1OC | 24.5%
Cn1cnc([N+](=O)[O-])c1Sc1ncnc2[nH]cnc12 | -9.25%
COc1ccc(C(C)=O)c(O)c1 | -6.35%
O=C1CC[C@@](c2ccccc2)(C2CCN(Cc3ccc(I)cc3)CC2)C(=O)N1 | 0.25%
NC(=O)c1ccc(-c2nc(-c3ccccn3)c(-c3ccc4c(c3)OCO4)[nH]2)cc1 | 4.04%
Cc1ccc(-c2cn3c4c(sc3n2)CCCC4)cc1 | -1.41%
NNCCc1ccccc1 | 20.8%
O=[N+]([O-])c1cc(Cl)ccc1S(=O)(=O)c1ccccc1 | -2.49%
CN(C(=O)Cc1ccc(Cl)c(Cl)c1)[C@H](CN1CCCC1)c1ccccc1 | -1.01%
c1ccc(CCNc2nc(-c3ccccc3)cs2)cc1 | 4.97%
CCCCCOc1ccc(-c2ccc(-c3ccc(C(=O)N[C@H]4C[C@@H](O)[C@@H](O)NC(=O)[C@@H]5[C@@H](O)[C@@H](C)CN5C(=O)[C@H]([C@@H](C)O)NC(=O)[C@H]([C@H](O)[C@@H](O)c5ccc(O)cc5)NC(=O)[C@@H]5C[C@@H](O)CN5C(=O)[C@H]([C@@H](C)O)NC4=O)cc3)cc2)cc1 | 9.19%
CNCC(O)c1ccc(OC(=O)C(C)(C)C)c(OC(=O)C(C)(C)C)c1 (stereo not drawn) | -0.77%
Oc1cc2c(cc1O)C(Cc1cccc3ccccc13)NCC2 (stereo not drawn) | 1.25%
Cc1cccc(C)c1NC(=O)CN1CCCCCC1 | -0.77%
C[C@@H](O)[C@H](N)C(=O)N1CCC[C@H]1C(=O)N1CCC[C@H]1C(=O)N[C@H](C(N)=O)[C@@H](C)O | 3.64%
Cn1cc(C(=O)C(=O)NC2CN3CCC2CC3)c2ccccc21 (stereo not drawn) | 7.47%
Cc1cc2c(cc1S(N)(=O)=O)S(=O)(=O)CCC2 | 4.11%

Study 5 — read-out: enzyme activity; action: inhibitor; concentration: 20 µM; notes: hit confirmation
Target: Replicase polyprotein 1ab, main protease (rep, Severe acute respiratory syndrome coronavirus 2, UniProt P0DTD1)
Compound | inhibition [%]
O=C1c2c(O)cc(O)cc2O[C@H](c2cc(O)c(O)c(O)c2)[C@H]1O | 99.7
COc1cc2c(cc1OC(C)C)[C@H](c1ccc(Cl)cc1)N(c1ccc(N(C)C[C@H]3CC[C@H](N4CCN(C)C(=O)C4)CC3)cc1)C(=O)C2 | 24.2
COc1cc(O)c2c(c1)C(=O)c1cc(C)cc(O)c1C2=O | 38.3
C[n+]1c2cc(N)ccc2cc2ccc(N)cc21 | 82.1
O=C(NC(=S)N1CCCc2ccccc21)c1ccccc1 | 81.1

Study 6 — technique: RNA Bind-n-Seq; form: RNA; medium: in vitro; concentration: not given; relative to: input RNA pool; direction: higher = stronger binding
Target: RING finger protein unkempt homolog, zinc fingers 1-6, GST-SBP tag (UNK, Homo sapiens, UniProt Q9C0B0, residues 30-357)
UniProt Q9C0B0, sequence (30-357, looked up): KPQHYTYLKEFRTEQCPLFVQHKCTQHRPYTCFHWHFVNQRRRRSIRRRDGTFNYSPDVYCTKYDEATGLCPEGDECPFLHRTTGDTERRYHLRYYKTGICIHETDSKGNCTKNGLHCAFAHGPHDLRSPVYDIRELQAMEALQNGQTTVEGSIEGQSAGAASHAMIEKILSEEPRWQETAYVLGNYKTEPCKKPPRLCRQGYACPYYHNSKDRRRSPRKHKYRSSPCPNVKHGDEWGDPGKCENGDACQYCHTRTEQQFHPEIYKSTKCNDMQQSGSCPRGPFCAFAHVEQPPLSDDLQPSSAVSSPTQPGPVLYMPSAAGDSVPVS
Notes: RNA with constant flanks, human and mouse sites, ends assumed
Constant ends, left off below: GGGAGUUCUACAGUCCGACGAUC … CAACAGAGGAUUGAGCAUCA
Strand | bound/input enrichment
AGUUUCAUCAUUUGGGUUCUCACACAGUGGGCUUACCCAGAGUGGAGCACACCUCCGGGGCUUGUGGCUGCUGCUGUGUAGACGCCUGCAUCUGUGCUGCGUGUGUGGUGCGUGUGGCUG | 0.15 ratio
AAUGAGGCCUCACCCCUGGACCCCAUUACUGAGGAAGAUGAGAAAUCCGACCAGUCAGGUAGUAAGCUGCUCCCAGGCAAGAAGUCUUCAGAACGGCCUAGUCUCUUCCAGACAGACUUG | 0.131 ratio
AAGCUUGGUGGGACAAUAGAUGACUGUGAGCUGGUGGAAGGCCUCGUUCUCACACAGAAAGUAGCAAAUUCUGGCAUAACAAGAGUUGAAAAGGCUAAGAUUGGGCUUAUUCAGUUUUGC | 0.471 ratio
AACAAUAGUGGAAUGAAAUCACACAAGUGCAGGAAGUCUGGAAAAUUCUUCACGAUGACCUCAAGCCUGAGUGGGCAUCCGAGAGAUCAUGCUAGAGAGAAGCCCUAUCAAUGUACAAAG | 0.154 ratio
CUUGGUGGAGAGUGUGUGACCGGUCCUGUUGGGUUGCUUUCAAUAUUGUCUCCUCACCCUCUGGUGUUGAUUCGACACUUCUUUUCCGUUGCAAUCUACGCCACGUAUUUCUGCUUCAAA | 0.151 ratio
GAGACCUUUUCCAGUUAUAUCAGCGUUCAUAAUGAUAGCAAUCAAGUUGUAAAAGACAUAUUAGUAAAAGCUGAUCUUCAGACAAGUUCUCAGCGUUUAAAUCUUUCAGCCUCCAAUGCU | 0.783 ratio
UUAGUUGUAGAUGACACAGAUAAACUUAGAUCAAAAUGAAAGUUGAAGGUCUUUAUUUCUCAAACUCUUUGGUGUUAAUAGAAUCCUAACAAAGUUUCAUUAGUCUAUUGUUUUAGUUAG | 3.77 ratio
UGUAUUCGAUAGAUCUCUACAACUAUGCCCCUUAUCGUAGGGAAUACUCAUAACUUUGUGUUAGCACGAUGGAGGAUACAAUGCUUUGCAGCAUAAGAGAGAAAAUAGUUCUACUAGCCA | 0.564 ratio

Some of these lines once more (study 4):
SMILES | inhibition
Cc1ccc(-c2cn3c4c(sc3n2)CCCC4)cc1 | -1.41%
NNCCc1ccccc1 | 20.8%
O=[N+]([O-])c1cc(Cl)ccc1S(=O)(=O)c1ccccc1 | -2.49%
CN(C(=O)Cc1ccc(Cl)c(Cl)c1)[C@H](CN1CCCC1)c1ccccc1 | -1.01%
c1ccc(CCNc2nc(-c3ccccc3)cs2)cc1 | 4.97%
CCCCCOc1ccc(-c2ccc(-c3ccc(C(=O)N[C@H]4C[C@@H](O)[C@@H](O)NC(=O)[C@@H]5[C@@H](O)[C@@H](C)CN5C(=O)[C@H]([C@@H](C)O)NC(=O)[C@H]([C@H](O)[C@@H](O)c5ccc(O)cc5)NC(=O)[C@@H]5C[C@@H](O)CN5C(=O)[C@H]([C@@H](C)O)NC4=O)cc3)cc2)cc1 | 9.19%
CNCC(O)c1ccc(OC(=O)C(C)(C)C)c(OC(=O)C(C)(C)C)c1 (stereo not drawn) | -0.77%
Oc1cc2c(cc1O)C(Cc1cccc3ccccc13)NCC2 (stereo not drawn) | 1.25%
